Measurements of several laboratories.
Parts stem from different laboratories: compare values within a part only. Substitutions count along the parent as printed.

Block 1 — technique: DHFR PCA, deep sequencing; medium: yeast; with: (+)-ABA 0.39 µM; reference: wild-type fitted maximum; direction: higher = stronger binding
Target: ABI1, truncated, D143A, DHFR fusion (Arabidopsis thaliana)
Setting: methotrexate growth selection, single substitutions
Starting sequence: PYL1, truncated, DHFR fusion (Arabidopsis thaliana); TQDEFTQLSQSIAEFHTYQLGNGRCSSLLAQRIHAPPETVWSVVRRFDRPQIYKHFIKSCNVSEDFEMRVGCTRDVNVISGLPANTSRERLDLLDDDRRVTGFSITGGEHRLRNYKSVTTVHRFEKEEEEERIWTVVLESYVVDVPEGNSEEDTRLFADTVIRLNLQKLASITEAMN; partner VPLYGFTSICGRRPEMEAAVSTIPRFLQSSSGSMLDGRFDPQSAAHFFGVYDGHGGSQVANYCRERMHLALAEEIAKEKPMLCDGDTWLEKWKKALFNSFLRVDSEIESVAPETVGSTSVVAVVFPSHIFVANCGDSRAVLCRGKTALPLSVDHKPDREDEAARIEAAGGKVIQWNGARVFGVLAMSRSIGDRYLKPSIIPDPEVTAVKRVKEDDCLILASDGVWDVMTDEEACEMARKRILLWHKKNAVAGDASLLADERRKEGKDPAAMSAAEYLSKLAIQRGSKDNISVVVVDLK
Substitution | relative binding score [%]
Y18T | 4.91
V136Q | -4.57
K126M | 55.3
A170S | -1.87
Y18A | 6.46
S27I | -3.65
E127T | 56.2
E151H | 26.8
A84L | 18.5
N85G | 33.2
K58Y | -1.05
P50V | -4.62
T86N | 56.1
T119N | -5.01
F124E | 13
S140A | 17.3
C60K | -13.2
D3C | 26.7
N61K | 65.5
F56R | -6.17

Block 2 — technique: RNA Bind-n-Seq; form: RNA; medium: in vitro; concentration: 365 nM; reference: no-protein control; direction: higher = stronger binding
Target: RNA binding protein fox-1 homolog 2, RRM domain, GST-SBP tag (RBFOX2, Homo sapiens, UniProt O43251-10, residues 100-194)
Setting: natural RNA segment, single round, ends assumed
Constant ends, left off below: GGGAGUUCUACAGUCCGACGAUC … UGGAAUUCUCGGGUGCCAA
Target sequence (chain): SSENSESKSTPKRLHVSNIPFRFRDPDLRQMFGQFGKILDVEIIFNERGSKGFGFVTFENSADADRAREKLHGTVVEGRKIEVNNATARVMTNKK
Strand | RBNS enrichment (R)
UAUCUCUUUUCUUCCAGCCCUGAGUGGCUGCGCUGCUGCCAUAUGUGACAAGUGGUCCUCACCAGUGUUAAGUGCUUCUGGAUUCAUGGGUGAGUUCCUUGGACGACCCC | 0.349
UGCUGGGGACGGUAGUUGCUUUUCUCUCUCCUGAUGCUAGGUUGGGGCCCACCCUGCUCCCUGUUCCUGCUAGGGCCUGCCAGUGCCCCUGAGCUUGCUUUCCACAUUCU | 0.809
CUUGUUUGAGAAUGGCUACUAGAGUUUAAGAGGCUAUGUAUGGAGUUUGUUGGGGAUGUAGUGAUGGUGGUAAGGAUCAGACCUAGGGCCCAGUGUACACUUAAGCACAU | 3.15
UGGGAGCAAGCGCCUUCUGCAGCACAGGAAGCCGAAGCUGGGGUCAGGUGAGGUCGCUACCCCUGGAGGUCUGGCAUAAGGGCCCCACCCUCAGGUCUCCUACACUGGCC | 0.236
UGAGGUGAGGUGUCUUCUCUGUCUGCCCCAUUGCACUCAACUGAAUAGAAAUAUUUGGGUUUAGAGCAUCUCAAAAGUGGGUAGAAUGUCCUUUGGGAUUUUGUUGCUCC | 0.611
AAGGCAGUUUAGAGAAUGAAGUAAACCAAUAGAUACUCUUUUGAUUCUCCAAAGAAAUAUAAUUUUGGUUUUUGUUCCUCAGAGAGAGUUUGAAAGAAAUUUUCAGAUGU | 0.613
UUAAAUAGUUGAAUCAUUAACAACCUGGUGGGAGGCAAGUCAUUUAAUUGAACCACUAGGAAGUGUAUUUUCUUUUCUUUUUCUGCCAACUUUUUGGUGGCAUUUGUAAA | 0.699
UUGGAGCAGUGUUUUGCAGAAUGAGCCAGAGUUCACCAAGCAGGCAAGGCAAGGAAGGGUGUUGCAGAGAGGGAACAGCAUAUGCAAAGGCGUAUCAGUUCAUGGCAUCA | 0.647
CUCCAGAUUUGCCAUACUGAGCCCCUCUUCCUAGCAUCAGGCGAUACAUCUGAGUUCAAAUGUCUUCCCAGGCUCAGGGACCUCCAUUCCUUGAGAUUGUCUUGGCAUGG | 0.532
GACUUCACUGCAUUAGACCCUAUAGCUGGUCUCACAAGACACUUUGUGCCCAGCUGUCACUCACUCAGCAGCUUCCUUGCAGCAGAGCAGGGCUGAGGGGAAGGGGCUAU | 0.546
AUUUGUCUGUUUCUUAAAUGAUCUCACAGCCAUGGUAAUAAUAGAUGUGUACUCAGAAGAUCAAUAAGGUAAUAUUGGAAUUCAUGUGUUUUUUGCAAUUAAGGCAGGCA | 0.938
AUUGGAAGUAUAAGUUUUGAGUGGCAUUGUUGCCUUCUAACAAGCUCUCUGGGACUUUUAAAGUUUUAUUACUAUUAUUGCUAAUGUAUGAUUAUGGUCAGAGACUUUCA | 0.426

Block 3 — target: CCNB3, cyclin fold, Cln2 fusion (human); technique: yeast growth competition, sequencing; medium: yeast; setting: weak parent motif; reference: not given; direction: higher = stronger binding
Starting sequence: CDKN1B docking peptide (human); PSACRNLFGPVDH; partner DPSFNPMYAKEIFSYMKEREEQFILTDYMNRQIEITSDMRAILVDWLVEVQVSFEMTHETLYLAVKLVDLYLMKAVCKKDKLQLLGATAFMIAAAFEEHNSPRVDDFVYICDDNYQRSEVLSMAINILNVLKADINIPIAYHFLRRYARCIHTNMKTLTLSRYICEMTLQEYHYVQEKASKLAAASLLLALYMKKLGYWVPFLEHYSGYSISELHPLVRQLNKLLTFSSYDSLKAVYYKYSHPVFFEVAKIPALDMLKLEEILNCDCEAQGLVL
Substitution | normalised enrichment score
PSACGNLFGPVDH [R5G] | -0.131
PSACRNLFNPVDH [G9N] | 0.264
PSACRYLFGPVDH [N6Y] | 0.12
PSACRNLFDPVDH [G9D] | 0.409
PSACRNLFGYVDH [P10Y] | 0.356
PSACRNLFGPVLH [D12L] | 0.437
PSACRNLFGPNDH [V11N] | 0.404
PSAKRNLFGPVDH [C4K] | 0.275
PSECRNLFGPVDH [A3E] | 0.64
PSACWNLFGPVDH [R5W] | 0.221
PSACRNLFMPVDH [G9M] | 0.373
PSACRELFGPVDH [N6E] | 0.343
PSFCRNLFGPVDH [A3F] | 0.535
PSACRNLRGPVDH [F8R] | 0.125
PSACRALFGPVDH [N6A] | 0.256
PSACRNLFGPVDT [H13T] | 0.417
WSACRNLFGPVDH [P1W] | 0.816
PSACRNLFGPVWH [D12W] | 0.552
KSACRNLFGPVDH [P1K] | 0.669
PSACRNLFYPVDH [G9Y] | 0.31
PDACRNLFGPVDH [S2D] | 0.211
PSACRNSFGPVDH [L7S] | 0.27
PSACRNLFGPVDI [H13I] | 0.425
PSACRNLFGPVDM [H13M] | 0.326
NSACRNLFGPVDH [P1N] | 0.565

Block 4 — target: UBE2N UBC core domain (UniProt P61088); technique: yeast two-hybrid; medium: yeast; setting: mostly zero background; reference: not given; direction: higher = stronger interaction
B1: ANKIB1 RING domain (UniProt Q9P2G1); chain LSPGDLDTSLCDICMCSISVFEDPVDMPCGHDFCRGCWESFLNLKIQEGEAHNIFCPAYDCFQLVPVDIIE
B2: RNF43 RING domain (UniProt Q68DV7); chain SGSSCSSAPVCAICLEEFSEGQELRVISCLHEFHRNCVDPWLHQHRTCPLCMFNITEGDSFS
B3: RNF149 RING domain (UniProt Q8NC42); chain EKGIDVDAENCAVCIENFKVKDIIRILPCKHIFHRICIDPWLLDHRTCPMCKLDVIKALGYW
B4: RFPL2 RING domain (UniProt O75678); chain MAALFQEASSCPVCSDYLEKPMSLECGCAVCLKCINSLQKEPHGEDLLCCCSSMVSRKNKIRR
B5: RNF14 RING domain (UniProt Q9UBS8); chain IKCFNSKLFLCSICFCEKLGSECMYFLECRHVYCKACLKDYFEIQIRDGQVQCLNCPEPKCPSVATPGQVK
B6: TRIM3 RING domain (UniProt O75382); chain VQPMDKQFLVCSICLDRYQCPKVLPCLHTFCERCLQNYIPAQSLTLSCPVCRQTSILPEQGV
B7: RNF112 RING domain (UniProt Q9ULX5); chain QPMAPRELPTCSICLERLRDPISLDCGHDFCIRCFSTHRLPGCEPPCCPECRKICKQKRGLR
B8: TRIM15 RING domain (UniProt Q9C019); chain SLKVVHELPACTLCAGPLEDAVTIPCGHTFCRLCLPALSQMGAQSSGKILLCPLCQEEEQAETPMA
B9: RNF5 RING domain (UniProt Q99942); chain ERGGAGATFECNICLETAREAVVSVCGHLYCWPCLHQWLETRPERQECPVCKAGISREKVVP
B10: RNF175 RING domain (UniProt Q8N4F7); chain LPTRSLSDNICAVCGQKIIVELDEEGLIENTYQLSCNHVFHEFCIRGWCIVGKKQTCPYCKEKVDLKRMIS
B11: TRIM52 RING domain (UniProt Q96A61); chain PMQTLQEEAVCAICLDYFKDPVSISCGHNFCRGCVTQLWSKEDEEDQNEEEDEWEEEEDEEAV
B12: RNF150 RING domain (UniProt Q9ULK6); chain DKETESDFDNCAVCIEGYKPNDVVRILPCRHLFHKSCVDPWLLDHRTCPMCKMNILKALGIP
B13: PHF7 RING domain (UniProt Q9BWX1); chain IQHGHVGEESCILCCEDLSQQSVENIQSPCCSQAIYHRKCIQKYAHTSAKHFFKCPQCNNRKEFPQEML
Construct (chain): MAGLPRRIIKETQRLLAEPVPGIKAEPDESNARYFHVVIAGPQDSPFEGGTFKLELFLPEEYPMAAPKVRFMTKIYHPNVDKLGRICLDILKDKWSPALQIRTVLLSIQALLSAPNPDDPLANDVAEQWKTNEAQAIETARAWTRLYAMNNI
Molecule | lacZ reporter activity
B1 (ANKIB1 RING domain) | 0
FLKKLEQSFMCVCCQELVYQPVTTECFHNVCKDCLQRSFKAQVFSCPACRHDLGQNYIMI (UHRF2 RING domain (UniProt Q96PU4)) | 0
B2 (RNF43 RING domain) | 7490
B3 (RNF149 RING domain) | 0
B4 (RFPL2 RING domain) | 0
B5 (RNF14 RING domain) | 0
KIKDLNEHIVCCLCAGYFVDATTITECLHTFCKSCIVKYLQTSKYCPMCNIKIHETQPLL (PCGF1 RING domain (UniProt Q9BSM1)) | 0
B6 (TRIM3 RING domain) | 0
B7 (RNF112 RING domain) | 0
B8 (TRIM15 RING domain) | 0
B9 (RNF5 RING domain) | 0
B10 (RNF175 RING domain) | 0
B11 (TRIM52 RING domain) | 0
B12 (RNF150 RING domain) | 0
B13 (PHF7 RING domain) | 0
